Experimental data from different studies.
Each numbered part is a random draw from the data of one study; scales do not carry over between parts.

Set 1 — technique: RNA Bind-n-Seq; molecule type: RNA; medium: in vitro; concentration: 200 nM; setting: whole 134-nt RNA, ends assumed; together with: 150 mM LiCl; reference: input library; reading: higher = stronger binding; quantity: log2 enrichment; each molecule: 7-deaza-guanosine replaces G
Target: Ras GTPase-activating protein-binding protein 1, full length (G3BP1, Homo sapiens, UniProt Q13283)
Sequence of UniProt Q13283 (whole entry, looked up): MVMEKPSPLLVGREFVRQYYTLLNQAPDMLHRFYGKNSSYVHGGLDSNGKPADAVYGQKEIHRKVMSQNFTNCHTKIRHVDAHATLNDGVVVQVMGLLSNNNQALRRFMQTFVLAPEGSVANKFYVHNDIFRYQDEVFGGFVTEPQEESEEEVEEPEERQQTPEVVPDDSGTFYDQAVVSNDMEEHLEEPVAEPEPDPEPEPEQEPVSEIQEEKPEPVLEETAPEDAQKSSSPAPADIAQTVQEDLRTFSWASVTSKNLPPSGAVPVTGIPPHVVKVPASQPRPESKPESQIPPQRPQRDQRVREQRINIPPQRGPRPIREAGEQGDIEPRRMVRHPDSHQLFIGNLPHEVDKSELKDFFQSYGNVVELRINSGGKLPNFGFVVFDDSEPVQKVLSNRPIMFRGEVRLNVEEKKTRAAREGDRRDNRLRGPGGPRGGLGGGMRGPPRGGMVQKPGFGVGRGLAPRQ
Constant ends, left off below: GGGAGUUCUACAGUCCGACGAUC … UGGAAUUCUCGGGUGUCAAGG
ACCAUGCAGGUGGGCAUCUUUGGGAAGUGGGGCAAGGGGGGGAUAGGGAGCGGGGUAACACUUUGGGAACAGGUGGUCCCAGGUCGUUUC: 0.313
CCUCAAGUCCUGUGCUACACAUCGUAUGUACCGAAUCGGAGGAAAGGUUUGGAAAGUAUUAUGUUACGCCGUUCGGAUCUGCACUUCCAG: -0.963
CCUCAAGUCCUGUGCUACACAUCGUAUGUACCGAAUCGGGUGGGAGGGUGGGAAAGUAUUAUGUUACGCCGUUCGGAUCUGCACUUCCAG: 0.0287
UGGCCCUGGUGGCAUGCGGGGAGGAACAGGUGGCCUCAUGGAUCGUGGUGGUCCCGGUGGAAUGUUCAGAGGUGGCCGUGGUGGAGACAG: 0.27
CUGUGCUACACAUCGUAUGUACCGAAUCGGGGCCCCCCGGGGCCCCCCGGGGCCCCCCGGGGAAAGUAUUAUGUUACGCCGUUCGGAUCU: -1.59
GCAGGAAGUAAAAACAAAUGGAAAUGCUUCGGAUAGUGGCAGGGGUGGGGGAUGCUAAGGAAAGGGUGGGAUGGGAGUGGGUAAAGAGUU: -0.318
UGGCCCUGGUGGCAUGCGGGGAGGAAGAGGUGGCCUCAUGGAUCGUGGUGGUCCCGGUGGAAUGUUCAUAGGUGGCCGUGGUGGAGACAG: -0.204

Set 2 — technique: RNA Bind-n-Seq; molecule type: RNA; medium: in vitro; concentration: 365 nM; reference: no-protein control; reading: higher = stronger binding; quantity: RBNS enrichment (R)
Target: RNA binding protein fox-1 homolog 2, RRM domain, GST-SBP tag (RBFOX2, Homo sapiens, UniProt O43251-10, residues 100-194)
Setting: natural RNA segment, single round, ends assumed
Constant ends, left off below: GGGAGUUCUACAGUCCGACGAUC … UGGAAUUCUCGGGUGCCAA
Construct (chain): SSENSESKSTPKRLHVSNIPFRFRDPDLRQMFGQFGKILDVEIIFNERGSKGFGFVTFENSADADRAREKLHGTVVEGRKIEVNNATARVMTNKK
ACUUCUAACCUGGCAGAGGCCCUGGCCGGCCCUCCCCCUGCUCUGCUUCUGCGCCUUCUGCGUUUGGACAUAGGACUCUGCAGGGCCGCCCUCUCUAACUGGCCUGGCUC: 0.475
AGGAAUGAACUCUGUGGGUUCCUGGGGAUGGAAGGACCGACAGAGCGGCUGAGCUGCUGGCUCUCUGGAGACUCCGUAGAGAACCCAGCGAUCAAAAACCCACUGUGAUG: 0.805
UUUGACUCACUUCAGACCAUCUUCCACACACUAUGUCUGUGCUUGGAGAGGGGAGGUGGCUCUCCAGUGUAAAACUUGAGGCAUUCACUAGAGGUGAAAACUUGUCAGAA: 0.372
GAGUCUGCCUGUUUCUGCUAGCUCCGUGUUUAGUCCACUUGGGUCAUCAGCUCUGCCAAGCUGAGCCUGGCCAAGCUAGGUGGACAGACCCUUGCAGUGAUGUCCGUUUG: 0.808
UGGGGAGGCCCAGAGUUACCUGCCAUAUCCCACAUAGUGGAGGCGUUCCCGCAGCCGCCACCACUAGCCUCCUUAGGGCUGGCCUUGUCCAAAGAAUGGGGGUGGGAGCG: 0.246
GCUGCCCCCUGCAAAGUAAACUCCAAGACAAACCAAACCCAAGGUACAAAUGUGUUACACAUAAAUGUUUUCCUUCCUGGGGGUCUGUGUUGGAUGUUGUGGGCCUGGAG: 0.48
CAUCCUUUCUUAUUCAUAGCGCACCACCCAAAGUCUGUGUGUUUGUGACAGUCUGUGGGGACUGUCCCAGUGCCUUUGUGAUGACCUAAACUGCACUGAGUCUCUUGCCA: 0.982
CACCAGGCUGAGGUCCUGAUCAGCUUCAAGGAGUAUGCAGGGAGCUGGGCUUCCAGAAAAUGAACACAGCAGUUCUGCAGAGGACGGGAGGCUGGAAGCUGGGAGGUCAG: 0.78
UCAUUUGGAAUUUAAUGCUUGACUUCUUUGUUCAUUUUGGAUCUAAACUUCUCUUUUCUUCCUUCCCCAUUCACAUCUAUUAGAAGACUGCAUCACCAUUUCUUUGGCCC: 7.12
UUAUAACCUAUCUUAGAGAAAUGAGUGCUGGUUUUGAGAGUUGUUUUUUAACUGAAAGAUUAUUUCUAGAUGGGUAGUGCUUUGUGCUGGUUUCUGCUUCCAUAUAUUUC: 0.571
AAAUUUCCCAUGUAAGCUGCAGUUUCUAUCUUUAGCCCAUCAUCAUUUUCUGCCCCCCCAAAAUCUGUUGAAAUGAUUCACUGAUGCAAAACAUUCACCCGUAAUAGACU: 0.758
AGUGUCCCUUUCCUCUCAGAGCCAAGUUCCAUUCCUGGAGUUAUCCUCUAGGCAUGAAGCCUUCCAGGGGCCGGGAUGGUAGGGAGUUUCACCCCUUCCUCCCUCCCCAA: 0.196

Set 3 — technique: RNA Bind-n-Seq; molecule type: RNA; medium: in vitro; concentration: 100 nM; reference: input RNA pool; reading: higher = stronger binding; quantity: bound/input enrichment
Target: RING finger protein unkempt homolog, zinc fingers 1-6, SBP tag (UNK, Homo sapiens, UniProt Q9C0B0, residues 30-357)
Sequence of UniProt Q9C0B0 (30-357, looked up): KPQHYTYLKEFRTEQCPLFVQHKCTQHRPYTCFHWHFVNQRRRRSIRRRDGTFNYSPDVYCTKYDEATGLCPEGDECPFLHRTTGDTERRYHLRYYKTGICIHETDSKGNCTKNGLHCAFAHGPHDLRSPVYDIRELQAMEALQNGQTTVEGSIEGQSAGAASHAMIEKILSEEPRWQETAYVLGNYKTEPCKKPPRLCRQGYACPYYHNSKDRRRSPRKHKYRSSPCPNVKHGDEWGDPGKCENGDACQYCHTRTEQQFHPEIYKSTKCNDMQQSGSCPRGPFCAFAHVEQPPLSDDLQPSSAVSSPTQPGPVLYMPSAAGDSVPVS
Setting: RNA with constant flanks, vertebrate orthologous sites, ends assumed
Constant ends, left off below: GGGAGUUCUACAGUCCGACGAUC … CAACAGAGGAUUGAGCAUCA
CUACUAUAAACAACUCAGGGCAGUAUUCUCGAUACCCUUACAGUAACCUAAAUCAGGGAUUAGUUAACAAUACAGGGAUGAAUCAAAAUUUAGGCCUUACAAAUAAUACUCCAAUGAAUC: 1.72 ratio
AGAAAACUUUAGUCAAGAAUCUGAAAGUAGAAAUGCUGGUUCCUGGUUGUCCUCCUCUCUAAGAAAUAGAUGCACACCUUUAUUUUCAAGGAGACGUCGAGAAGGAAGAGAUGAAUCUAC: 0.435 ratio
UUCAGGCACAACUGACUGGUUCACAGCAUUCCUUACAUAGCUAUCUAUCAAAUGCAAGUGUCGUUAAUUUUCAGGAAACUAGCAGGCAGUCAUCCUUAUCCUGUAGCCCAAUUGGAGAUU: 1.53 ratio
GUGGGGAUGAGGGUGGGAUGGGAAAGGGAUGUAUGGAUGUUACUGGCAUUUUUAAGUGUUUAGAGUUUUUUGGGGUUUUGGGUUUUUUGUUUUGUUUUGUUUUUCCUUGUUUUCUUUUUU: 2.03 ratio
GAUGGUGGUUGUGCAUUUCAUUUCAUUUAGAAAAUAUAAAAAUUCAUUUUGUUUCGAAGCAAGGUAUUUACUGGAAUAGCUAUUAUUAUACUCCUGAGAUUAGGGCAUUGUGCCCUUACC: 3.45 ratio
CUGAAGCUUUGUGUUUGGCUGCACCUGCAUAAGCUGCUACAAAUAGAAUAAAGAAUUUCAUAGCCUGUAUCUAUCAUUUAGAUGCAUGGAAAAUGGGCUUUGCACAAAAUGGGUUUGGAG: 1.58 ratio
AAAUCAAUAGAAUUACAAAUACUAAAGUUGCUGUUGAAAGGGUAUCCAAGUAUGUGUUGGUAGUUACUAAAACAAUUAUAGCUGUUAUUGCCUUGUAUUUAUAGCCCUUGUUUCAGGUUU: 1.79 ratio

Set 4 — technique: RNA Bind-n-Seq; molecule type: RNA; medium: in vitro; concentration: 20 nM; setting: 6-mer, flanks averaged, single round; together with: 150 mM LiCl; reference: input library; reading: higher = stronger binding; quantity: 6-mer enrichment (R)
Target: TAR DNA-binding protein 43, full length, His tag (TARDBP, Homo sapiens, UniProt Q13148, residues 1-414)
UAGUAA: 0.901
CCAUGG: 0.951
UUGUCC: 1.02
UCGAAA: 0.784
UGUGAU: 1.22
UCAUAU: 0.919
GGCCAU: 0.952
ACUAGU: 0.881
UCGCAA: 0.833
AGGGUG: 1.37
GGCAAG: 1.03
GAAAGA: 0.889
GCAACU: 0.845
CCACUU: 0.939
AGAACC: 0.921

Set 5 — technique: protein binding microarray; molecule type: double-stranded DNA, one strand shown; medium: in vitro; concentration: not given; reference: not given; reading: higher = stronger binding; quantity: E-score
Target: Histone acetyltransferase KAT6A, winged helix 1, GST fusion (KAT6A, Homo sapiens, UniProt Q92794, residues 1-85)
Setting: 8-mer, flanks averaged, mean of 2 arrays, mostly near background
Target sequence (chain): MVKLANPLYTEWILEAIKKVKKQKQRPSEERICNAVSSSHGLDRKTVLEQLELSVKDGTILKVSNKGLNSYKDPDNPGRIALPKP
GCCGGATA: 0.275
GGTCCATA: -0.125
TAAATCTA: -0.0824
ATTTAGGG: 0.00771
CCGAAACA: -0.0339
TCCCCACA: -0.241
CCAGTGAA: -0.145
CCAGTGGA: -0.266
CAAAGCTA: -0.0351
AGTATCGC: 0.0619
GTTGCAAC: -0.0699
CGTGGCAG: -0.0918
ATTCCTAA: -0.147

A few entries again (set 4):
GAAAGA: 0.889
UAGUAA: 0.901
UUGUCC: 1.02
GGCCAU: 0.952
ACUAGU: 0.881
AGGGUG: 1.37
GGCAAG: 1.03
